Measured values from different studies.
Compare with care: the assays were run in different laboratories. “And” joins repeats or separate records; there may be more than shown.
MAPK1: Mitogen-activated protein kinase 1 (MAPK1, Homo sapiens, UniProt P28482)

| Structure (SMILES) | target | test | test system | setting | how to read | measurement | value |
| --- | --- | --- | --- | --- | --- | --- | --- |
| C#CCOC(=O)[C@]1(C)C=C(C(=O)OC(C)(C)C)C(=O)CC1 | MAPK1 | enzyme activity, D-SENSOR | – | 4.938 µM, single replicate | – | normalized kinase activity | 0.942 and 0.653 and 0.758 |
| Nc1ncc2c(n1)-c1c([nH]c3ccc(C4=CCOCC4)cc13)CCC2 | MAPK1 | binding, competition with immobilised ligand | – | 1 µM | – | remaining binding | 94% |
| CNC(=O)C1CCN(c2cc(C)c(F)cc2NC(=O)c2ccc(-c3cc(O)ccc3C)c(C)c2)CC1 | MAPK1 | binding, competition with immobilised ligand | – | 1 µM | – | remaining binding | 100% |
| Cc1cccc(-c2ccc3nc(NC(=O)C4CCCCC4)nn3c2)c1 | MAPK1 | enzyme activity, Dundee kinase panel | – | 10 µM | – | remaining activity | 75% |
| COc1cc(-n2cc3cc(F)cc(C(N)=O)c3n2)cc(Cl)c1C1CC(O)(CCO)Cc2ccccc21 (stereo not drawn) | MAPK1 | enzyme activity, inhibitor | – | 10 µM | – | inhibition | 2.25% |
| COC(=O)[C@@]1(C)C=C(C(=O)Nc2cccc(C(=O)Nc3ccc(Nc4nccc(-c5cccnc5)n4)c(C)c3)c2)C(=O)CC1 | MAPK1 | enzyme activity, inhibitor | – | 4.938 µM, unit not given | relative to: vehicle | remaining activity | 0.925 and 0.827 and 0.998 |
| CCn1cc(C(=O)O)c(=O)c2c(N)c(F)c(NC3CCCCC3)cc21 | MAPK1 | kinase activity | – | 0.1 µM, together with: ATP at Km | – | inhibition | -15.2% |
| Cc1ccc(-c2c(/C=C(\C#N)C(=O)NC(C)C)n(CCCO)c3ncnc(N)c23)cc1 | MAPK1 | binding, competition with immobilised ligand | – | 1 µM | – | remaining binding | 95% |
| Nc1ncc(-c2cc(-c3cnn(CC(F)(F)F)c3)ncc2F)nc1C(=O)NC1CNCC(F)C1 (stereo not drawn) | MAPK1 | enzyme activity | – | 1 µM | relative to: DMSO control | remaining activity | 89.2% |
| C=CC(=O)Nc1cccc(-c2cnc3[nH]cc(C(=O)NC(C)(C)C)c3n2)c1 | MAPK1 | enzyme activity, inhibitor | – | 0.1 µM | – | inhibition | 2% |
| Cc1ccc(C)c(-c2ccc3nc(NC(=O)C4CCCCC4)nn3c2)c1 | MAPK1 | enzyme activity, Dundee kinase panel | – | 10 µM | – | remaining activity | 86% |
| Cc1cnc2nc1Nc1cccc(c1)COC/C=C/COCc1cc(ccc1OCCN1CCOCC1)N2 | MAPK1 | binding, competition with immobilised ligand | – | 0.1 µM | – | remaining binding | 99% |
| NC(=O)[C@@H](O)C[C@H]1CCc2sc3ncnc(O[C@H]4CC[C@H](N5CCOCC5)CC4)c3c21 | MAPK1 | enzyme activity, inhibitor | – | 10 µM | – | inhibition | 6% |
| C=C1CC2(C(=O)OC)C=C(C(=O)OC(C)(C)C)C(=O)C1C2 (stereo not drawn) | Mitogen-activated protein kinase 1, with MKK1 (MAPK1, Homo sapiens, UniProt P28482) | MKK1-ERK2 interaction, NanoBiT luminescence | HEK293T | concentration not given | relative to: untreated | relative protein interaction | 0.732 |
| C[C@H]1CN(C(=O)c2cn(-c3ccnc(N)n3)c3cc(C#CC4(O)CCCCC4)ccc23)CCN1 | MAPK1 | enzyme activity, inhibitor, FRET | – | 1 µM | – | inhibition | -1% |
| COc1c(Cl)cccc1Nc1c(-c2ccncc2C#C[C@@]2(C)CCCN2C(=O)/C=C/CN(C)C)[nH]c2c1C(=O)NCC2 | MAPK1 | binding, competition with immobilised ligand | – | 3 µM | – | remaining binding | 98% |
| CC(C)=CC1OC(C)(C)C2C=C3C(=O)C(Cl)=CC(O)C3C3C(O)C4OC4C(=O)C132 (stereo not drawn) | MAPK1 | cell-free assay, competition with immobilised ligand | – | 10 µM | – | remaining binding | 81% |
| Cc1cccc(O[C@H]2CCC[C@@H](C(C)CNCc3ccncc3)C2)c1 (relative stereo) | MAPK1 | enzyme activity, inhibitor | – | 10 µM | – | inhibition | -11% |
| C=CC(=O)Nc1cc(-c2nn(C3CCN(CCNC(=O)[C@H](C)CCC45CC6CC(CC(C6)C4)C5)CC3)c3ncnc(N)c23)ccc1Oc1ccccc1 | MAPK1 | inhibitor, KiNativ profiling | biochemical | 2 µM | – | inhibition | 2.8% |
| CNC1C[S+]2CC[S+]3CC[S+](C1)[Ru-4]321([N]=C=S)[n]2c3ccc(OC)cc3c3c4c(c5cc(F)c[n+]1c5c32)C(=O)NC4=O (stereo not drawn) | MAPK1 | KinomeScan | – | 0.1 µM | relative to: untreated | remaining binding | 91% |
| CN1CC[C@@H](COc2cnc(C#N)cc2-c2ccn3nc(NC(=O)C4CC4)cc3c2)C1 | MAPK1 | inhibitor, KinaseProfiler panel | – | 1 µM | – | inhibition | -1% |

Repeated from above:
| Structure (SMILES) | target | test | test system | setting | how to read | measurement | value |
| --- | --- | --- | --- | --- | --- | --- | --- |
| COc1cc(-n2cc3cc(F)cc(C(N)=O)c3n2)cc(Cl)c1C1CC(O)(CCO)Cc2ccccc21 (stereo not drawn) | MAPK1 | enzyme activity, inhibitor | – | 10 µM | – | inhibition | 2.25% |
| CN1CC[C@@H](COc2cnc(C#N)cc2-c2ccn3nc(NC(=O)C4CC4)cc3c2)C1 | MAPK1 | inhibitor, KinaseProfiler panel | – | 1 µM | – | inhibition | -1% |
